Measurements pooled from the literature.
Numbered parts are unrelated; each lists some results of a single study.

Block 1
Target: RNA binding protein fox-1 homolog 2, RRM domain, GST-SBP tag (RBFOX2, Homo sapiens, UniProt O43251-10, residues 100-194)
Technique: RNA Bind-n-Seq
Molecule type: RNA
Sample: in vitro
Concentration: 365 nM
Notes: natural RNA segment, single round, ends assumed
Reference: no-protein control
Direction: higher = stronger binding
Residues (chain): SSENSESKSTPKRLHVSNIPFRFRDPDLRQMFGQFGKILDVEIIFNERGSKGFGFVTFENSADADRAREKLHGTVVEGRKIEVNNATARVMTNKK
`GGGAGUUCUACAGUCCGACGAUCUCCAGAUACUUCUCUGUGAAAGUGGCCUCUCUACAGGGUGCCGUUCUGUUUUUUCCCAGUAGUACAAGGCCAGUGUCCUGAGCAAUGGGACCAGUUCUCCACCUGCUCUGUGGAAUUCUCGGGUGCCAA`: “RBNS enrichment (R)” 0.332.
`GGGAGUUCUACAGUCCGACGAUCUCCCAUCCUGAUACAUCCUGAAGUAACACUGUUUUAAACUUUCUUAGUGCUGGAGUAAAAGGUCAAGUCCAACACCUGCCUUAAAUUUAAAUCAUGUGAUUUAUAGUUUUUGGAAUUCUCGGGUGCCAA`: “RBNS enrichment (R)” 0.244.
`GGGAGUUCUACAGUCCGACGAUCAACUUUGGUCAGGUGUGUUUAUGGUGACAUGAUUUCUGUGGUUCCUGCCUUACAGCAGGCAGGUUGUAUGGUGAGAAGAAUGAAGGCUGUUGUAGUUACAGGUGCUCUUAUGGAAUUCUCGGGUGCCAA` — result for “RBNS enrichment (R)”: 1.36.
For `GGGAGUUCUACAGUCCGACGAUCUCUGACUUCUCAGCCUCAUUUGGACUAAAAAAAGAAAGCAGAAAUCCAUGAACACAUUGCUUCUCGGCCUUUUGGCUAAGAUCAAGUGUAGAAAUCCAUGAACACUAAAGUGGAAUUCUCGGGUGCCAA`, “RBNS enrichment (R)” read 0.188.
`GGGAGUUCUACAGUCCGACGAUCUCUGGAACAUGGGCACAGAGAGGGGCCUGUGGGAGGGGCUGGGAAAAUAAAGUCCAAGGUCGAGACCAGACAGCUGCCAGCCUCUACAUGCCUUCAUGAGCCUCUGCUCCUGGAAUUCUCGGGUGCCAA` — result for “RBNS enrichment (R)”: 0.483.
For `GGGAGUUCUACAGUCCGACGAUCUACCUUGCCCUCAGCCUAUCCCUGAACUAAACAGGACCCACUGAGUCCCAGCCUCAGCAGGCUGCUUGUCUUCAGUUGAUGGUGGAUUAAUGACAGAAGGAAGCCCCGCCUGGAAUUCUCGGGUGCCAA`, “RBNS enrichment (R)” read 0.235.
`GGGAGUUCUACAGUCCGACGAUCCUGCUAAUGCAGGACAGUCUACUUUUCAGUUAAUUCAGAGCCCUUAGCUUGUGUUAUCAAAUGUUCUAAUGCAUAUUUAUAAGAGAAAAAAGGUUUAAAGUAUUUAUUCCUGGAAUUCUCGGGUGCCAA` — result for “RBNS enrichment (R)”: 0.542.
`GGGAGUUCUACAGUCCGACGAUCGGCCCGGUGGCAAGCGCUGAAAAACCGACCGCCUGUAGGCUCCUGGAACUAUACAGAUAGGUAAAGAGUUCCAAGUUCGUCCAGCCCAUGUGCAAAGUCAACAGUAUUUGUGGAAUUCUCGGGUGCCAA`: “RBNS enrichment (R)” 0.689.

Block 2
Target: Sal-like protein 4, full length isoform A (SALL4, Homo sapiens, UniProt Q9UJQ4, residues 1-1053)
Sequence of UniProt Q9UJQ4 (whole entry, looked up): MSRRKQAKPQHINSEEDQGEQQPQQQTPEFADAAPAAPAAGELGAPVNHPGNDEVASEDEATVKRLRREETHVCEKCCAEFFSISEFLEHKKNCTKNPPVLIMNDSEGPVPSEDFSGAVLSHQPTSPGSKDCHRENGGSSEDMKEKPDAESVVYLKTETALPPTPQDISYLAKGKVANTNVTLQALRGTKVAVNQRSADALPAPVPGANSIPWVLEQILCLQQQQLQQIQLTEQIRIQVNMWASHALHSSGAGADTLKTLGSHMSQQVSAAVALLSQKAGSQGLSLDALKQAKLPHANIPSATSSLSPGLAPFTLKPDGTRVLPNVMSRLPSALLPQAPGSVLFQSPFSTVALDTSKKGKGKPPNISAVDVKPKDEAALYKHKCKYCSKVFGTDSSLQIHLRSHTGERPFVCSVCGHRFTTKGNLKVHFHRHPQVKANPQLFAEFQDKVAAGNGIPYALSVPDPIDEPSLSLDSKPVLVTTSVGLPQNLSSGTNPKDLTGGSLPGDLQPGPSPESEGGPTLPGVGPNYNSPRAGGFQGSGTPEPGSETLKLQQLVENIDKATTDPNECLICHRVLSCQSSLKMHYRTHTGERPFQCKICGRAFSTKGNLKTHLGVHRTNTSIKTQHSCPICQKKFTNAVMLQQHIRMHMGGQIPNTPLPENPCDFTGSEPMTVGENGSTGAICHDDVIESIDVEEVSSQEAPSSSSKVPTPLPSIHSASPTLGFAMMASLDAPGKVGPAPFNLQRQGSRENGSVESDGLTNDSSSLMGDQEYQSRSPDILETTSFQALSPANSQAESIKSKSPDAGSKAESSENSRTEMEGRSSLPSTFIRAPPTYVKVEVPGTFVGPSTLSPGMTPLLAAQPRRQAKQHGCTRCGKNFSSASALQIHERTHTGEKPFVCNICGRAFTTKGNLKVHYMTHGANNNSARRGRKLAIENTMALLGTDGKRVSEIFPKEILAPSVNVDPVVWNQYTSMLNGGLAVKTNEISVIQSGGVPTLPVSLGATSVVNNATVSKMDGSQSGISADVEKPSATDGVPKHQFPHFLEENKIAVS
Technique: universal PBM
Molecule type: double-stranded DNA, one strand shown
Sample: in vitro
Concentration: 600 nM
Notes: 8-mer, flanks averaged, mean of replicates
Direction: higher = stronger binding
With `AGCAGTGC` the E-score was -0.172.
The E-score of `ACTTTAGA` is reported as 0.108.
`CGCACTGC` gave an E-score of -0.155.
The E-score of `GGCATAGA` is reported as -0.0497.
`GTCCTTTA` gave an E-score of -0.0003.
With `AACAGAGA` the E-score was 0.0983.
For `AAGAGAAG`, the E-score was 0.0852.
With `ACCCCAGT` the E-score was -0.223.
`CGATCTGA` has an E-score of -0.0696.
The E-score of `GCATAGTA` is reported as 0.184.
With `ATCGCTAA` the E-score was 0.122.
The E-score of `GTGACCAA` is reported as 0.13.
`CTCATCCC` gave an E-score of -0.211.
With `AGTCCGTC` the E-score was -0.158.
`AAAGGCGT` gave an E-score of -0.122.
For `CACTTGCA`, the E-score was 0.0498.

Block 3
Target: Ras GTPase-activating protein-binding protein 1, full length (G3BP1, Homo sapiens, UniProt Q13283)
Sequence of UniProt Q13283 (whole entry, looked up): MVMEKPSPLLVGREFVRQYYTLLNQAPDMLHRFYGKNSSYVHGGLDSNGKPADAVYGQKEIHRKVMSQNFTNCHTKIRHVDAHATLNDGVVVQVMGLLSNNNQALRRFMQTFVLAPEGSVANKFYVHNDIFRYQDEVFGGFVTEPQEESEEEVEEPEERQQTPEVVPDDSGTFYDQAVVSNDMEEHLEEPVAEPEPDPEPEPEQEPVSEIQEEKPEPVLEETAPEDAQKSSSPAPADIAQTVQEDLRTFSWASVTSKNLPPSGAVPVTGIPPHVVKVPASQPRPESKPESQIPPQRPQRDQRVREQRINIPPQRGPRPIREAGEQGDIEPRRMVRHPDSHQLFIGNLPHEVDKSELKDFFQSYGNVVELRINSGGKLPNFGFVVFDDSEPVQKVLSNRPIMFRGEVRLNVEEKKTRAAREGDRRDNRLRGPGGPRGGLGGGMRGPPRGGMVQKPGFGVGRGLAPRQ
Technique: RNA Bind-n-Seq
Molecule type: RNA
Sample: in vitro
Concentration: 200 nM
Notes: whole 134-nt RNA, ends assumed
Added: 150 mM LiCl
Reference: input library
Direction: higher = stronger binding
Library: 7-deaza-guanosine replaces G
The log2 enrichment of `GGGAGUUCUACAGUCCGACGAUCUCAUUAGAAGAUCUAAUUGAGAGAGAGGUAACUGGUAUCCUUUUCCUACCAUAAAAACUGAAAGCAGUAUUUAUUGUGAAAUUCUAAUACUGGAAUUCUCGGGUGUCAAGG` is reported as 0.488.
`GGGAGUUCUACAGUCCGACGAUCUGAAAUGUUUUUUUCUCUGUCUUCUUUCAGGUCUUUGUUGAGUAUGCAAAUGCUGGUGAUUCCAAAGCUGCGCAGAAAUUACUGACUGGAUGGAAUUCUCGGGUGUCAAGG` has a log2 enrichment of -0.751.
With `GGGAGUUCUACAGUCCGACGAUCCAAGUCCUGUGCUACACAUCGUAUGUACCGAAUCGGGGAAAGGGGAGGGGAGGGGAAAGUAUUAUGUUACGCCGUUCGGAUCUGCACUUCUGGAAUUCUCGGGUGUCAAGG` the log2 enrichment was 0.401.
With `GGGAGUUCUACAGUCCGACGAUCGCAGGAAGUAAAAACAAAUGGAAAUGCAUCGGAUAGUGGCAGGGGUGGGGGUUGCUAAGGAAAGGGUGGGAUGGGAGUGGGUAAAGAGUUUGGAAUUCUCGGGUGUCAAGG` the log2 enrichment was -0.0603.
With `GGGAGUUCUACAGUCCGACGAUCUUAGUGAAUGUAUAGAAGGAGUAAAGGUAGAGCACAAUCCUGACCUGUCAGUUACUGUCAGCACCAAAAAAUCCCACCAGACAUGGACCUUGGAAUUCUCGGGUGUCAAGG` the log2 enrichment was 1.06.

Block 4
Target: Histone acetyltransferase KAT6A, winged helix 2, GST fusion (KAT6A, Homo sapiens, UniProt Q92794, residues 85-181)
Technique: protein binding microarray
Molecule type: double-stranded DNA, one strand shown
Sample: in vitro
Concentration: not given
Notes: 8-mer, flanks averaged, mean of 2 arrays, mostly near background
Reference: not given
Direction: higher = stronger binding
Residues (chain): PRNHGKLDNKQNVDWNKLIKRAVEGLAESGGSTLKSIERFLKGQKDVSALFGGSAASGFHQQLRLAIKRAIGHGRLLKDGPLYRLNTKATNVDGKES
`CCTTTAAG` has an E-score of -0.0514.
`AGACCGGC` gave an E-score of -0.049.
With `GCCTGAAA` the E-score was 0.0963.
`CCACAGCA` gave an E-score of 0.163.
The E-score of `CATCGTAC` is reported as -0.0546.
For `AACGTGAC`, the E-score was -0.233.
`CTGGCCTA` has an E-score of -0.00434.
`GGCCACGA` gave an E-score of 0.137.
`AATCTGGC` gave an E-score of 0.019.
For `ATGCCGCA`, the E-score was 0.109.
For `TCCTTCCA`, the E-score was -0.146.
`CCTAATAC` has an E-score of -0.137.
The E-score of `CTCCTCAC` is reported as -0.0857.
For `ACCGTGCC`, the E-score was -0.13.
For `AGGGGCCA`, the E-score was 0.00955.

Block 5
Target: Prothrombin, mature alpha-thrombin (F2, Homo sapiens, UniProt P00734)
Technique: aptamer microarray, sandwich
Molecule type: DNA with 2'F-ANA
Sample: in vitro
Concentration: 200 nM
Notes: whole 15-mer aptamer, many near background
Added: Cy3 exosite-II aptamer, 400 nM
Direction: higher = stronger binding
Strand: GGTTGGTGTGGTTGG
For `2'F-ANA at 1 2 4 9 10 12 13 14 15`, “mean fluorescence intensity” read 49 a.u.
`2'F-ANA at 2 3 5 6 7 8 9 10 11 14 15`: “mean fluorescence intensity” 52.1 a.u.
Under “mean fluorescence intensity”, `2'F-ANA at 1 2 3 4 6 8 10 12 14` is recorded as 61.2 a.u.
Under “mean fluorescence intensity”, `2'F-ANA at 1 3 4 10 11 12 13 15` is recorded as 67.4 a.u.
`2'F-ANA at 3 5 8 11 13 14`: “mean fluorescence intensity” 70.7 a.u.
Under “mean fluorescence intensity”, `2'F-ANA at 2 4 5 6 10 13` is recorded as 124 a.u.
For `2'F-ANA at 4 6 7 9 10 11 12 13 14 15`, “mean fluorescence intensity” read 56.9 a.u.
For `2'F-ANA at 1 2 5 7 11 14`, “mean fluorescence intensity” read 42.6 a.u.
`2'F-ANA at 1 2 3 7 8 9 10`: “mean fluorescence intensity” 70.2 a.u.
`2'F-ANA at 2 4 6 7 8 13 14` — result for “mean fluorescence intensity”: 102 a.u.
`2'F-ANA at 1 2 5 6 7 9 11 12 13`: “mean fluorescence intensity” 172 a.u.
Under “mean fluorescence intensity”, `2'F-ANA at 2 6 8 11 12 14` is recorded as 149 a.u.
`2'F-ANA at 1 2 3 6 8 9 10 11`: “mean fluorescence intensity” 62 a.u.
`2'F-ANA at 1 2 6 7 8 10 11 13 14` — result for “mean fluorescence intensity”: 54.1 a.u.
`2'F-ANA at 1 3 4 6 7 8 14 15` — result for “mean fluorescence intensity”: 80.1 a.u.
Under “mean fluorescence intensity”, `2'F-ANA at 4 5 6 7 8 11 13` is recorded as 55.8 a.u.
